Results from different studies.
Numbered parts are unrelated; each lists some results of a single study. Positions count from the first letter of the parent shown.

Series 1
Target: CCNB1, cyclin fold, Cln2 fusion (human)
Method: yeast growth competition, sequencing
Medium: yeast
Setting: strong parent motif
Reference: not given
Direction: higher = stronger binding
Measurement: normalised enrichment score
Starting sequence: MASTL docking peptide (human); PMIAKNLMCELDE; partner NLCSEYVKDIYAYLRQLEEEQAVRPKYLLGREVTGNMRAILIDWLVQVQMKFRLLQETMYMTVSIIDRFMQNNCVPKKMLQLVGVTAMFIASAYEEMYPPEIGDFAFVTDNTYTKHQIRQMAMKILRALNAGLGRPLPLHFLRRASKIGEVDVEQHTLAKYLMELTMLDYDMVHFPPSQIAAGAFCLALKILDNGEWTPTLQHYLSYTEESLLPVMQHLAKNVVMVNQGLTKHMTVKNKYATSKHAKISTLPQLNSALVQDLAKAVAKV
D12C: 0.813
C9N: 1.82
L7A: 0.0369
I3N: 0.144
A4P: 0.815
M8C: 0.033
N6R: 0.473
D12Q: 1.23
K5V: 0.471
D12V: 1.07
K5L: 0.372
A4G: 0.19
L7R: -0.09
E10M: 1.35
D12G: 0.965
N6S: 0.948
I3E: 0.298
M8W: 0.978
A4W: 1.24
N6F: -0.0462
N6I: 0.471
L11F: 2.99
L11Y: 1.6
A4S: 1.58
N6A: 0.0292

Series 2
Target: CRIPT, C-terminal peptide
Method: DHFR complementation, deep sequencing
Medium: yeast
Setting: single substitutions, model-inferred values
Reference: wild type
Direction: higher = weaker binding
Measurement: binding free energy change
Starting sequence: ERBIN, PDZ domain 1 (human); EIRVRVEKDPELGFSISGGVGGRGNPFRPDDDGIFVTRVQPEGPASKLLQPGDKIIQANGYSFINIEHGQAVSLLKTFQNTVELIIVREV; partner TKNYKQTSV
G24T: 0.989 kcal/mol
E7N: 0.0671 kcal/mol
Q70N: 0.04 kcal/mol
L84Y: 2.04 kcal/mol
G33S: 0.497 kcal/mol
V87S: 0.0264 kcal/mol
G52R: 0.362 kcal/mol
V90D: -0.0103 kcal/mol
Y61N: 0.0491 kcal/mol
T77V: 0.308 kcal/mol
E42I: 0.358 kcal/mol
D32I: 0.317 kcal/mol
E83T: -0.0331 kcal/mol
F14G: 0.536 kcal/mol
I85L: -0.0745 kcal/mol
G22V: 0.0897 kcal/mol
Y61Q: -0.0453 kcal/mol
R38Q: -0.127 kcal/mol
A71T: 0.831 kcal/mol
G22A: -0.854 kcal/mol
K54L: 0.213 kcal/mol
I66L: -0.0637 kcal/mol
G22S: -0.433 kcal/mol

Series 3
Target: ABI1, truncated, D143A, DHFR fusion (Arabidopsis thaliana, UniProt P49597)
Method: DHFR PCA, dose-response
Medium: yeast
Setting: Hill fit, mean, not affinity
With: (+)-ABA, dose series
Direction: lower = more sensitive
Measurement: ABA EC50
Starting sequence: PYL1, truncated, DHFR fusion (Arabidopsis thaliana, UniProt Q8VZS8); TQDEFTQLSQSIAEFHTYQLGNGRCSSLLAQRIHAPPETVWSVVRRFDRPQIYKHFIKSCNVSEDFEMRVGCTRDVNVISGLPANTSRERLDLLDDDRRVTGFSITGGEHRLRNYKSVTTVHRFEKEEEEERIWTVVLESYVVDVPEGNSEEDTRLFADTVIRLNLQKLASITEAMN
Q2T: 1.35 µM
L94T: 187 µM
E67G: 6.37 µM
E64P: 2.86 µM
K126F: 2.04 µM
G81D: 160 µM
D97M: 4.26 µM
C72P: 316 µM
E152S: 2.85 µM
T6G: 1.71 µM
S27Q: 12.6 µM
R46T: 10.2 µM
R24I: 6.05 µM
I79V: 1.79 µM
E151W: 11.1 µM
R90F: 174 µM

Series 4
Target: PABPC1L2, full length, GST fusion (mouse, UniProt A0ABA7IW68)
Method: RNAcompete
Form: RNA
Medium: in vitro
Concentration: 20 nM
Setting: 7-mer, probes averaged, single round
Reference: mean of 7-mers
Direction: higher = stronger binding
Measurement: 7-mer Z-score
Target sequence (chain): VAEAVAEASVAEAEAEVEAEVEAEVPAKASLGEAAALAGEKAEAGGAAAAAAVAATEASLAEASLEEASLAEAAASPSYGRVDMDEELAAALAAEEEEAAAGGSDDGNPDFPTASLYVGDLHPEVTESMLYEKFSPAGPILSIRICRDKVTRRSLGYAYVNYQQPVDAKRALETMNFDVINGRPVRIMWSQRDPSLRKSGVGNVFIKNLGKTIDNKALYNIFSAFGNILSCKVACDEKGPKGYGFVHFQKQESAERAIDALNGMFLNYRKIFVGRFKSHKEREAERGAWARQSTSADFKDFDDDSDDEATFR
AUGCGGG: 0.178
CAACACG: -0.0681
GAGGGUC: 0.102
AGUGAUA: -0.0591
GCUUUUU: 0.133
AAAGCAG: 1.42
GUAGGAG: -0.148
GAGUGGU: -0.215
ACUCGAU: -0.186
AUGUGUU: -0.34
CAGAAGG: 0.0551

Series 5
Target: RNA binding protein fox-1 homolog 2, RRM domain, GST-SBP tag (RBFOX2, Homo sapiens, UniProt O43251-10, residues 100-194)
Method: RNA Bind-n-Seq
Form: RNA
Medium: in vitro
Concentration: 365 nM
Setting: natural RNA segment, single round, ends assumed
Reference: no-protein control
Direction: higher = stronger binding
Measurement: RBNS enrichment (R)
Shared flanks, not repeated: GGGAGUUCUACAGUCCGACGAUC … UGGAAUUCUCGGGUGCCAA
Target sequence (chain): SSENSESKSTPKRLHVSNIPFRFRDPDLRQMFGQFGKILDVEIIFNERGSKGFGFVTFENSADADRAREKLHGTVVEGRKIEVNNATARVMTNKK
UGGGUCCAGUCUCCAGGACCUAUCUAAAAGAUAGAAGGAAAGAGCCAACUCCCAGAGUUGACCUGUGUCACACCAGAUAACCAACUGCACUGCUGAAGUUUUCACAAGUG: 0.236
UAUAUAACAACAUAGAAUAACAACAACAGAAAAUGAUAAGUACAGAUAAAUGGUUAAUUGUUGGGGCUGGGAAAAUGGCCCAGUGGUUAAAAGUAUUCAUUCCUCUCGAG: 0.773
GUCUUCACUAGACCCCAGCCCCCUCUACCCUUCUUACCACCUCCCUAUAGCCUCAGCUUCAGAAGCCAGUAGCCUCCAGCCACAGAGUAUCGUGUUGUGGGCUGUUUGAG: 0.338
UAUGCGCCAAGAUCUAAUUUUAAAACUGUAUGAGGACUUUGUGCUGAAAAUAGAGUAUUUUUUUAAAGUAAGGCUGUCUUGGUUUAAAAGCAGAUUACAGAAAUGUAAGU: 0.571
GAGAUCUGCCUGCCUCUGCUUCCCAAGUGCUGGGAUUAAAGGCAUGCGCCACCUUCACCUGGGUUUUCUUUCUUAAAGGAACAGGUUAGAGCAAGUGACCGUUGAGGACA: 0.352
UCCAGGAGAAGGCCAAUUCCUAUACGCAGCGUGCUUUAAAAAAUAAAUAAGAAACAACUCUUUGAGAAACAACAAUUUCUACUUUGAAGUCAUACCAAUGAAAAAAUGUA: 0.7
CUUAACUCCUGGUGGAAGAGGGGCAGGCACGUUCGAAGCUUCUGGAUUCAUUUUUCCUCCACUUUCCUGAGAGACCAAAAGUGUUCCUUGAGAUGUCACCAUUUGUCUUU: 1.58
UUGGGGCAUUUAAAGCUACUCUUCUUUCUUCUUCCUCUCUUGACCACAUCCUAGACCCAGUUCCAUAUACACUUCUUCAUCCCAAUACACAGGAAACAUGGAUAAGGAAG: 0.755
CUAUUAUGUCUUGUAAAUUUCUUUUGUUGGUGUAAAUAUGGAAAUGCCACAUUGGUUAAGUGCCAUCAUUUGUAAUGCAAUGUGUCACUUGAAAAGAGAUUUGAAGAAAC: 0.715
AAUGCCAGAAGGAAAACACUAUUUUCAUACCCUACUUUUUCUGUACCUAAAUUUUCUUAAAAAAAAAUCUAGUAUAGCACUACAUUCUUUUUUAAGUGAUGCAGACCUUA: 0.389
AGCCAGCUCAUGGAACGUAGGCCGCAUACGCACAUCUUACCAGUAACCAGUGUGGUUGCCAGAGUGGUCAGGCUGCUCUGAGACAGGGAAGUCUGAUCUCCGCAGGAAAC: 0.266
ACUAAGGAUAUUCUUUAGCAAGAGAAAAUAUUUUCCCCUUAUCCCCACUGCUGUGGAGGUUUCUGUACCUCGCUUGGAUGCCUGUAAGGAUCCCGGGAGCCUUGCCGCAC: 0.318

Series 6
Target: BATF, bZIP domain (human)
Method: DHFR protein complementation
Medium: yeast
Setting: single substitutions, most at no-binding floor
Reference: wild-type JUN-FOS pair
Direction: higher = stronger binding
Measurement: binding fitness
Starting sequence: JUN, bZIP domain (human); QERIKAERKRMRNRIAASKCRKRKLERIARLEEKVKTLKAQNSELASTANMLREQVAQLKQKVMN; partner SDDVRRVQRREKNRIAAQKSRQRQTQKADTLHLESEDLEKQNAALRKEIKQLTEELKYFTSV
L31C: -0.212 natural log
R30N: -0.0137 natural log
Q55W: -0.366 natural log
K34F: -0.184 natural log
E32S: -0.0889 natural log
M51E: 0.0356 natural log
L31Q: -0.152 natural log
Q41N: -0.269 natural log
V35R: -0.348 natural log
Q55C: -0.169 natural log
T37Q: 0.147 natural log
A49G: -0.73 natural log
L45Y: -0.321 natural log
S47L: -0.0116 natural log
A29G: -0.0821 natural log
S43V: -0.0442 natural log
L38D: -1.14 natural log
A29P: -0.199 natural log
